Results of several laboratories.
Lines come from different studies, so protocols differ. Numbers after ± are the reported error.

SMILES	cell line	test	setting	IC50
c1ccc2nc3ccccc3cc2c1	ARPE-19	cytotoxicity, CCK-8	48 h	2530 ± 831 nM
CCCC[N+]1=c2cc3c4cc2[O][Mn-2]1(=[C]=O)(=[C]=O)(=[C]=O)[n+]1ccc(cc1)C(=O)Nc1ccccc1NC(=O)c1cc[n+](cc1)[Mn-2](=[C]=O)(=[C]=O)(=[C]=O)([O]3)[N+]=4CCCC	HEK293	cell growth, MTT	48 h, LED photolysed 1 h	> 50000 nM
O=C1C=CC2(Oc3cccc4cccc(c34)O2)c2ccccc21	MDA-MB-435	cell growth or viability, resazurin	72 h	2300 nM
Cn1ncc(-c2ccc3c(=O)[nH]nc(CN)c3c2)c1-c1c(F)c(Cl)cc(OC2CC2)c1C#N	LN-229	cell viability, inhibitor, CellTiter-Glo	120 h, baseline-subtracted	470 nM
CN1C(=O)/C(=N\c2ccc(Cl)cc2Br)c2ccccc21	L02	cell growth or viability, MTT	48 h	96400 nM
CCCc1cc2cc(-n3nc(C(F)F)c4c3CC3(CCC3)CC4=O)cc(N3CCC(O)CC3)c2c(=O)[nH]1	SK-OV-3	cell growth or viability, MTS		3110 nM
O=C1Nc2ccccc2C12NC(c1ccc(F)cc1)C1(C(=O)Nc3ccccc31)N2Cc1ccc(F)cc1 (stereo not drawn)	L02	cell growth or viability, MTT	48 h	68800 nM
O=C(CCCCCONC(=O)c1nc(-c2ccncc2)cs1)NO	neonatal foreskin fibroblasts	cytotoxicity, sulforhodamine B	72 h	37200 nM
CSCCCN1C(=O)C2=Nc3ccccc3CN2C1=S	CCRF-CEM	cell viability, resazurin	72 h	inactive
CC[C@H](C)[C@H](NC(=O)[C@H](CCCCN)NC(=O)[C@H](Cc1ccccc1)NC(=O)C[C@H](CC(C)C)NC(=O)CN)C(=O)N[C@H](CC(=O)N[C@@H](CCCCN)C(=O)N[C@@H](CCCCN)C(=O)N[C@H](CC(=O)N[C@@H](CC(C)C)C(=O)N[C@@H](CCCCN)C(=O)N[C@@H](CC(C)C)C(=O)N[C@H](CC(N)=O)Cc1ccccc1)[C@@H](C)CC)[C@@H](C)CC	HUVEC	cytotoxicity		4.3 µg/mL
CO[C@@H]1[C@@H](OC(=O)c2ccc(C)[nH]2)[C@@H](O)[C@H](Oc2ccc3c(O)c(NC(=O)c4c[nH]c(C(=O)Nc5c(O)c6ccc(O[C@@H]7OC(C)(C)[C@H](OC)[C@@H](OC(=O)c8ccc(C)[nH]8)[C@H]7O)c(C)c6oc5=O)c4C)c(=O)oc3c2C)OC1(C)C	human Keratinocyte	cell growth or viability, ATP luminescence	72 h	~12000 nM
CC[C@H](C)[C@H](NC(=O)[C@H](CCCCN)NC(=O)C[C@H](Cc1ccccc1)NC(=O)[C@H](CC(C)C)NC(=O)CN)C(=O)N[C@H](CC(=O)N[C@@H](CCCCN)C(=O)N[C@@H](CCCCN)C(=O)N[C@H](CC(=O)N[C@@H](CC(C)C)C(=O)N[C@@H](CCCCN)C(=O)N[C@H](CC(=O)N[C@@H](Cc1ccccc1)C(N)=O)CC(C)C)[C@@H](C)CC)[C@@H](C)CC	HUVEC	cytotoxicity		6.7 µg/mL
CNS(=O)(=O)Nc1nccc(Cc2c(C)c3ccc(Oc4ncccc4F)cc3oc2=O)c1F	C32	cell viability	7 days	4.03 nM
NC(=S)NN=Cc1ccc([N+](=O)[O-])o1	IMR-90	cell growth or viability, resazurin		> 100000 nM
CC(=O)Oc1ccccc1C(=O)[O][Pt]([NH2])([NH2])([Cl])([Cl])[O]C(C)=O	BCPAP	cell growth or viability, MTT	72 h	310 nM
CC[C@H](C)[C@H](NC(=O)[C@H](CCCCN)NC(=O)[C@H](Cc1ccccc1)NC(=O)[C@H]1CCC[C@@H]1NC(=O)CN)C(=O)N[C@H](CC(=O)N[C@@H](CCCCN)C(=O)N[C@@H](CCCCN)C(=O)N[C@H]1CCC[C@@H]1C(=O)N[C@@H](C)C(=O)N[C@@H](CCC(=O)O)C(=O)N[C@@H](CO)C(=O)N[C@H](CC(N)=O)Cc1ccccc1)[C@@H](C)CC	HUVEC	cytotoxicity		102 µg/mL
COc1ccc(CC[C@H]2OC(=O)[C@@H]3CCCCN3C(=O)C(=O)C(C)(C)COC(=O)C=CCCN(C)C(=O)[C@H](CC(C)C)N(C)C(=O)[C@H]3CCCCN3C(=O)[C@H](Cc3ccccc3)N(C)C(=O)[C@H](c3ccccc3)NC(=O)CCC(=O)Nc3cccc2c3)cc1OC	HUVEC	thymidine uptake, inhibitor		1920 ± 530 nM
NC(=O)c1ccc(-c2ccccc2Cl)c2c3c([nH]c12)CC[C@H](N)C3	MOLT-4	cell growth or viability		20.9 nM
O=C1Nc2ccccc2/C1=N/c1ccc(Cl)cc1Br	L02	cell growth or viability, MTT	48 h	25800 nM
COc1ccc(C[C@@H]2NC(=O)[C@H](c3ccccc3)NC(=O)CCC(=O)Nc3cccc(c3)[C@@H](CCc3ccc(OC)c(OC)c3)OC(=O)[C@@H]3CCCCN3C(=O)C(=O)C(C)(C)COC(=O)C=CCCN(C)C(=O)[C@H](CC(C)C)N(C)C(=O)[C@H]3CCCN3C2=O)cc1	HUVEC	thymidine uptake, inhibitor		33 ± 9 nM
Cc1ccc(-c2ccc(C)cn2)nc1.[Co+2].[O-]c1c(I)cc(Cl)c2cccnc12.[O-]c1c(I)cc(Cl)c2cccnc12	HL-7702 normal hepatocytes	cell viability, MTT	48 h	63890 ± 490 nM

SMILES	cell line	test	setting	IC50
O=C1C(Cl)=C(Cl)C(=O)c2c(O)ccc(O)c21	MOLT-3	cell growth or viability, XTT		270 nM
COc1ccc2c(c1)CN1C(=S)N([C@H](C)c3ccccc3)C(=O)C1=N2	CCRF-CEM	cell growth or viability, resazurin	72 h	1530 nM
COc1ccc(CC[C@H]2OC(=O)[C@@H]3CCCCN3C(=O)C(=O)C(C)(C)COC(=O)C=CCCN(C)C(=O)[C@H](CC(C)C)N(C)C(=O)[C@H]3CCCN3C(=O)[C@H](Cc3ccccc3)N(C)C(=O)[C@H](Cc3ccc(-c4ccccc4)cc3)NC(=O)CCC(=O)Nc3cccc2c3)cc1OC	HUVEC	thymidine uptake, inhibitor		> 20000 nM
N#Cc1c(N)nc2c(c1-c1ccc(F)cc1)Cc1cc(O)ccc1-2	HuT78	cell growth or viability, ATP luminescence		4100 nM
Cc1nc(Nc2ccc3c(c2)/C(=C/c2c[nH]c4ccccc24)C(=O)N3)c2ccccc2n1	H22	cell growth or viability, MTT		960 nM
COc1ccc(CC[C@H]2OC(=O)[C@@H]3CCCCN3C(=O)C(=O)C(C)(C)COC(=O)C=CCCN(C)C(=O)[C@H](Cc3ccc(F)cc3)NC(=O)[C@@H](Cc3ccccc3)N(C)C(=O)[C@@H]3CCCN3C(=O)[C@H](CC(C)C)N(C)C(=O)CCC(=O)Nc3cccc2c3)cc1OC	HUVEC	thymidine uptake, inhibitor		> 20000 nM
C[C@H](c1ccccc1)N1C(=O)C2=Nc3ccc(Br)cc3CN2C1=S	CCRF-CEM	cell growth or viability, resazurin	72 h	483 nM
COc1ccc(CC[C@H]2OC(=O)[C@@H]3CCCCN3C(=O)C(=O)C(C)(C)COC(=O)C=CCCN(C)C(=O)[C@H](CC(C)C)N(C)C(=O)[C@H]3CCCN3C(=O)[C@@H](Cc3ccccc3)N(C)C(=O)[C@@H](Cc3ccccc3)NC(=O)CCC(=O)Nc3cccc2c3)cc1OC	HUVEC	thymidine uptake, inhibitor		3400 ± 800 nM
Cc1ccc([N+](=O)[O-])cc1S(=O)(=O)N(C)/N=C/c1cnc2ccc(Br)cn12	SF-295	MTS	NCI60 panel	141 nM
COc1ccc(CC[C@H]2OC(=O)[C@@H]3CCCCN3C(=O)C(=O)C(C)(C)COC(=O)C=CCCN(C)C(=O)CN(C)C(=O)[C@H]3CCCN3C(=O)[C@H](Cc3ccccc3)N(C)C(=O)[C@H](Cc3ccccc3)NC(=O)CCC(=O)Nc3cccc2c3)cc1OC	HUVEC	thymidine uptake, inhibitor		440 ± 100 nM
c1ccc2nc3c4cccnc4c4ncccc4c3nc2c1	L02	cell growth or viability, MTT	48 h	> 50000 nM
Cc1c(CN(C)C(=O)/C=C/c2cnc3c(c2)CC(N)C(=O)N3)oc2ccccc12 (stereo not drawn)	IMR-90	cell growth or viability, resazurin	72 h	52200 nM
C[C@H](c1cccc2ccccc12)N1C(=O)C2=Nc3ccccc3CN2C1=S	CCRF-CEM	resazurin	72 h	520 ± 50 nM
CC(C)c1ccc(N(C)c2ccc3c(c2)OCC[C@H]3CNc2cnccc2C(=O)O)cc1	NCI-H1623	cell growth or viability, ATP luminescence	7 days	18.9 nM
COc1ccc(CC[C@H]2OC(=O)[C@@H]3CCCCN3C(=O)C(=O)C(C)(C)COC(=O)C=CCCN(C)C(=O)[C@@H](Cc3ccccc3)NC(=O)[C@@H](Cc3ccccc3)N(C)C(=O)[C@@H]3CCCN3C(=O)[C@H](CC(C)C)N(C)C(=O)CCC(=O)Nc3cccc2c3)cc1OC	HUVEC	thymidine uptake, inhibitor		> 20000 nM
CCOc1cncc(-c2ccc(NC(=O)C3(c4ccnc(NS(=O)(=O)C5CC5)n4)CCOCC3)nc2)n1	MDA-MB-453	cell growth or viability, ATP luminescence	72 h	25 nM
CCCC[C@H]1C(=O)N(C)CCC=CC(=O)OCC(C)(C)C(=O)C(=O)N2CCCC[C@H]2C(=O)O[C@H](CCc2ccc(OC)c(OC)c2)c2cccc(c2)NC(=O)CCC(=O)N[C@@H](Cc2ccccc2)C(=O)N(C)[C@@H](Cc2ccccc2)C(=O)N2CCC[C@@H]2C(=O)N1C	HUVEC	thymidine uptake, inhibitor		> 20000 nM
C=CC(=O)N1CCCC(n2c(=O)c3ncccc3n(Cc3ccc(Oc4ccccc4)cc3)c2=O)C1 (stereo not drawn)	L-1236	cell growth or viability, MTT	72 h	9000 nM
Cc1ccc2c(Cl)cc(Cl)c([O-])c2n1.Cc1ccc2c(Cl)cc(Cl)c([O-])c2n1.[Co+2].c1ccc(-c2ccccn2)nc1	HL-7702 normal hepatocytes	cell viability, MTT	48 h	68000 ± 930 nM
CCCN1C(=O)C2=Nc3ccccc3CN2C1=S	CCRF-CEM	cell growth or viability, resazurin	72 h	33800 nM
NCC1OC(OC2C(CO)OC(OC3C(O)C(N)CC(N)C3OC3OC(CN)C(O)C(O)C3N)C2O)C(N)C(O)C1O (stereo not drawn)	ARPE-19	cytotoxicity, CCK-8	48 h	> 100000 nM

Repeated from above:
SMILES	cell line	test	setting	IC50
CN1C(=O)/C(=N\c2ccc(Cl)cc2Br)c2ccccc21	L02	cell growth or viability, MTT	48 h	96400 nM
CCCc1cc2cc(-n3nc(C(F)F)c4c3CC3(CCC3)CC4=O)cc(N3CCC(O)CC3)c2c(=O)[nH]1	SK-OV-3	cell growth or viability, MTS		3110 nM
O=C1Nc2ccccc2C12NC(c1ccc(F)cc1)C1(C(=O)Nc3ccccc31)N2Cc1ccc(F)cc1 (stereo not drawn)	L02	cell growth or viability, MTT	48 h	68800 nM
O=C(CCCCCONC(=O)c1nc(-c2ccncc2)cs1)NO	neonatal foreskin fibroblasts	cytotoxicity, sulforhodamine B	72 h	37200 nM
CSCCCN1C(=O)C2=Nc3ccccc3CN2C1=S	CCRF-CEM	cell viability, resazurin	72 h	inactive
CC[C@H](C)[C@H](NC(=O)[C@H](CCCCN)NC(=O)[C@H](Cc1ccccc1)NC(=O)C[C@H](CC(C)C)NC(=O)CN)C(=O)N[C@H](CC(=O)N[C@@H](CCCCN)C(=O)N[C@@H](CCCCN)C(=O)N[C@H](CC(=O)N[C@@H](CC(C)C)C(=O)N[C@@H](CCCCN)C(=O)N[C@@H](CC(C)C)C(=O)N[C@H](CC(N)=O)Cc1ccccc1)[C@@H](C)CC)[C@@H](C)CC	HUVEC	cytotoxicity		4.3 µg/mL
